Experimental data from different studies.
Lines come from different studies, so protocols differ.
Organism: Pseudomonas aeruginosa

For `COc1cc(C(=O)O)ccc1NC(=O)c1ccc(NC(=O)c2ccc(NC(=O)[C@H](Cc3c[nH]nn3)NC(=O)c3ccc(NC(=O)/C(C)=C/c4ccc(O)cc4)cc3)cc2)cc1O`, the MIC was 32 µg/mL (broth microdilution; ciprofloxacin-resistant).
The MIC of `COc1ccc2ccc(O)c(/C=N/[C@H]3CCCC[C@H]3/N=C/c3cccc(F)c3O)c2c1` is reported as greater than 40 µM (microbial growth, broth dilution).
The MIC of `CCCCCCCCCCn1cc[n+](CCCCCCOc2cc(OCCCCCC[n+]3ccn(CCCCCCCCCC)c3)cc(OCCCCCC[n+]3ccn(CCCCCCCCCC)c3)c2)c1.[Br-].[Br-].[Br-]` is reported as 16 µM (PAO1).
With `COc1ccc2ccc(O)c(/C=N/[C@H]3CCCC[C@H]3/N=C/c3cc(C(C)(C)C)cc(C(C)(C)C)c3O)c2c1` the MIC was greater than 40 µM (microbial growth, broth dilution; clinical isolate).
With `CC(C)(O/N=C(\C(=O)N[C@@H]1C(=O)N(OS(=O)(=O)O)C1(C)C)c1nsc(N)n1)C(=O)O` the MIC was 64 µg/mL (agar dilution; PAO1).
`CC[C@H]1OC(=O)[C@H](C)[C@@H](OC(=O)Cc2ccc(N)cc2)[C@H](C)[C@@H](O[C@@H]2O[C@H](C)C[C@H](N(C)C)[C@H]2O)[C@](C)(OC)C[C@@H](C)C(=O)[C@H](C)[C@@H](O)[C@]1(C)O` has an MIC of 32 µg/mL (PAO397, five efflux pumps deleted).
`O=C(O)c1cn(C2CC2)c2cc(N3CCNCC3)c(F)cc2c1=O` has an MIC of 0.03 µg/mL (broth microdilution; phenazine non-producing).
`O=[N+]([O-])c1c(Br)c(Cl)c2cccnc2c1O` gave an MIC of 4 µg/mL (microbial growth, broth dilution; ATCC27853).
For `CCCCCCCCCC(=O)Oc1c(C)c(OC)c2c(/C=C/c3ccccc3)c(CCCCCCCC)c(=O)oc2c1C`, the MIC was 5000 µg/mL (microbial growth, broth dilution; ATCC27853).
With `COc1c(NC(=O)c2ccc(NC(=O)[C@H](Cc3c[nH]nn3)NC(=O)c3ccc(NC(=O)/C(C)=C/c4ccc(O)cc4)cc3)cc2)ccc(C(=O)Nc2ccc(C(=O)O)c(O)c2)c1O` the MIC was 4 µg/mL (broth microdilution; ciprofloxacin-sensitive).
With `CNC(C)C1CCC(N)C(OC2C(N)CC(N)C(OC3OCC(C)(O)C(NC)C3O)C2O)O1` (stereo not drawn) the MIC was 1 µM (microbial growth, broth dilution; 27853).
The MIC of `CC1(C)C(NC(=O)C(=NOC2(C(=O)O)CC2)c2csc(N)n2)C(=O)N1OS(=O)(=O)O` (stereo not drawn) is reported as 2 µg/mL (agar dilution; PAO1).
For `C=CCOc1c(C)c(OC)c(C(=O)/C=C/c2ccccc2)c(OCC=C)c1C`, the MIC was 5000 µg/mL (microbial growth, broth dilution; ATCC27853).
For `Cc1ccc(C(=O)Sc2cccccc2=O)cc1`, the MIC was greater than 71.4 µM (broth microdilution; ATCC 27853, CAMHB; 16 to 24 h, ≥80% growth inhibition).
The MIC of `CC[C@H]1OC(=O)[C@H](C)[C@@H](OC(=O)Cc2c(F)cccc2F)[C@H](C)[C@@H](O[C@@H]2O[C@H](C)C[C@H](N(C)C)[C@H]2O)[C@](C)(OC)C[C@@H](C)C(=O)[C@H](C)[C@@H](O)[C@]1(C)O` is reported as greater than 128 µM (DSM 50071; added: colistin sulfate at 0.1 x MIC).
For `CN[C@H](CC(C)C)C(=O)N[C@H]1C(=O)N[C@@H](CC(N)=O)C(=O)N[C@H]2C(=O)N[C@H]3C(=O)N[C@H](C(=O)N[C@H](C(=O)NCc4cn(CCCCC(=O)N[C@H](C(=O)N[C@@H](CCN)C(=O)N[C@H]5CCNC(=O)[C@H]([C@@H](C)O)NC(=O)[C@H](CCN)NC(=O)[C@H](CCN)NC(=O)[C@H](CC(C)C)NC(=O)[C@@H](CC(C)C)NC(=O)[C@H](CCN)NC5=O)[C@@H](C)O)nn4)c4cc(O)cc(O)c4-c4cc3ccc4O)[C@H](O)c3ccc(c(Cl)c3)Oc3cc2cc(c3O[C@@H]2O[C@H](CO)[C@@H](O)[C@H](O)[C@H]2O[C@H]2C[C@](C)(N)[C@H](O)[C@H](C)O2)Oc2ccc(cc2Cl)[C@H]1O`, the MIC was greater than 128 µg/mL (broth microdilution; ATCC 10145, cation-adjusted Mueller-Hinton broth; 18 to 20 h, 37 °C, 0.002% polysorbate 80).
With `COc1ccc2ccc(O)c(/C=N/[C@H]3CCCC[C@H]3/N=C/c3ccc(F)cc3O)c2c1` the MIC was greater than 40 µM (microbial growth, broth dilution; clinical isolate).
`CCn1cc(C(=O)O)c(=O)c2cc(F)c(N3CCNCC3)cc21` has an MIC of 0.06 µg/mL (broth microdilution; pyocyanin non-producing).
`COc1cc(C(=O)Nc2ccc(C(=O)O)cc2)ccc1NC(=O)c1ccc(NC(=O)[C@H](Cc2c[nH]nn2)NC(=O)c2ccc(NC(=O)/C(C)=C/c3ccc(O)cc3)cc2)cc1` gave an MIC of 32 µg/mL (broth microdilution; ciprofloxacin-resistant).
`CCCCCC[N+](C)(C)CCCCOc1cc(OCCCC[N+](C)(C)CCCCCC)cc(OCCCC[N+](C)(C)CCCCCC)c1.[Br-].[Br-].[Br-]` gave an MIC of greater than 250 µM (PAO1).
For `CC1(C)[C@H](NC(=O)/C(=N\OC2(C(=O)O)CC2)c2nsc(N)n2)C(=O)N1OS(=O)(=O)O`, the MIC was 8 µg/mL (agar dilution; PAO1).
`CC(C)C[C@@H]1NC(=O)[C@@H](CC(C)C)NC(=O)[C@H](CCN)NC(=O)[C@@H](NC(=O)[C@H](CCN)NC(=O)[C@@H](N)[C@@H](C)O)CCNC(=O)[C@H]([C@@H](C)O)NC(=O)[C@H](CCN)NC(=O)[C@H](CCN)NC1=O` has an MIC of greater than 138 µM (broth microdilution; ATCC 25922, cation-adjusted Mueller-Hinton broth).
`CC1(C)[C@H](NC(=O)/C(=N\OCc2c(Cl)cccc2Cl)c2csc(N)n2)C(=O)N1OS(=O)(=O)O` has an MIC of greater than 64 µg/mL (agar dilution; PAO1).
With `CC[C@H]1OC(=O)[C@H](C)[C@@H](OC(=O)Cc2ccc([N+](=O)[O-])cc2)[C@H](C)[C@@H](O[C@@H]2O[C@H](C)C[C@H](N(C)C)[C@H]2O)[C@](C)(OC)C[C@@H](C)C(=O)[C@H](C)[C@@H](O)[C@]1(C)O` the MIC was greater than 32 µg/mL (microbial growth; ATCC27853).

For quick reference, copied from above:
The MIC of `CC1(C)C(NC(=O)C(=NOC2(C(=O)O)CC2)c2csc(N)n2)C(=O)N1OS(=O)(=O)O` (stereo not drawn) is reported as 2 µg/mL (agar dilution; PAO1).
For `C=CCOc1c(C)c(OC)c(C(=O)/C=C/c2ccccc2)c(OCC=C)c1C`, the MIC was 5000 µg/mL (microbial growth, broth dilution; ATCC27853).
